Published values collected from several papers.
Numbered parts are unrelated; each lists some results of a single study.

Series 1
Target: Fragile X messenger ribonucleoprotein 1, C-terminal low-complexity region (Fmr1, Mus musculus, UniProt P35922)
Method: RNA Bind-n-Seq
Form: RNA
Sample: in vitro
Tested at: 200 nM
Notes: whole 134-nt RNA, ends assumed
Added: 150 mM LiCl
Relative to: input library
Reading: higher = stronger binding
Endpoint: log2 enrichment
Each molecule: 7-deaza-guanosine replaces G
Shared flanks, not repeated: GGGAGUUCUACAGUCCGACGAUC … UGGAAUUCUCGGGUGUCAAGG
UCAAGUCCUGUGCUACACAUCGUAUGUACCGAAUCGGAAAGGUGGUUUUUUUGGAAAGUAUUAUGUUACGCCGUUCGGAUCUGCACUUCC: -0.286
AGUCCUGUGCUACACAUCGUAUGUACCGAAUCGGGCCCCCGGGCCCCCGGCCCCCGGAAAGUAUUAUGUUACGCCGUUCGGAUCUGCACU: -0.645
AAGUCCUGUGCUACACAUCGUAUGUACCGAAUCGGAAAGGUUUUUUUGGUUUUUGGAAAGUAUUAUGUUACGCCGUUCGGAUCUGCACUU: -2.96
UAGUAACAGGGGUGAAGAUGCCUUUUGUGAUCCUGAAGAUGAAUGGGAACCCGACAUUACAGAUGCACCAGUUUCUUCACUUUCUAGAAG: -2.53
UGUAUCCCUGUUUCUUUUCUCCCUACAGAAACAUAUGAGGAUUUUGAUACCAGGAUACUUGAGGUAGGCAUGCAGAAUUAAAUACCUGGU: -0.0915
UCCUGUGCUACACAUCGUAUGUACCGAAUCGGGGAAAAAGGGGAAAAAGGGAAAAAGGGGAAAGUAUUAUGUUACGCCGUUCGGAUCUGC: -0.521
UACAGACAACACGCACCCACACAGACACAGAGGGAAGGGGUUGGGAUGGGGACAGGGUGCACAGCAGGGCGGGGUAGGACCCCAGCCCCU: -0.374
GCAGGAAGUAAAAACAAAUGGAAAUGCUUCGGAUAGUGGCGGGGGUGGGGGUUGCUAAGGAAAGGGUGGGAUGGGAGUGGGUAAAGAGUU: 1.42
AGUCCUGUGCUACACAUCGUAUGUACCGAAUCGGUUUUUGGUUUUUGGUUUUUGGGGAAAGUAUUAUGUUACGCCGUUCGGAUCUGCACU: -1.73
GUCCUGUGCUACACAUCGUAUGUACCGAAUCAAAUUUUUAAACCCCCAAAUUUUUAAAAAAGUAUUAUGUUACGCCGUUCGGAUCUGCAC: -0.267
CUGUGCUACACAUCGUAUGUACCGAAUCGGGGUUUUUUGGGGUUUUUUGGGGUUUUUUGGGAAAGUAUUAUGUUACGCCGUUCGGAUCUG: 1.05

Series 2
Target: Prothrombin, mature alpha-thrombin (F2, Homo sapiens, UniProt P00734)
Method: aptamer microarray, sandwich
Form: DNA with 2'F-ANA
Sample: in vitro
Tested at: 200 nM
Notes: whole 15-mer aptamer, many near background
Added: Cy3 exosite-II aptamer, 400 nM
Reading: higher = stronger binding
Endpoint: mean fluorescence intensity
Sequence: GGTTGGTGTGGTTGG
2'F-ANA at 1 2 5 6 8 9 10 12 13 14: 54.3 a.u.
2'F-ANA at 1 2 3 4 5 8 11 12 15: 86.9 a.u.
2'F-ANA at 3 5 7 8 10 15: 59.9 a.u.
2'F-ANA at 3 9 11 14 15: 585 a.u.
2'F-ANA at 1 3 5 7 8 13 14 15: 45.8 a.u.
2'F-ANA at 5 7 8 11 12 13 14: 47.2 a.u.
2'F-ANA at 4 12: 702 a.u.
2'F-ANA at 2 4 8 9 10 11 12 13 14: 61.8 a.u.
2'F-ANA at 1 2 3 5 6 8 11 12 13 14: 67.8 a.u.
2'F-ANA at 2 3 5 6 7 9 10 11 12 15: 66 a.u.
2'F-ANA at 2 5 7 11 15: 76.8 a.u.
2'F-ANA at 1 5 7 8 11 13 14 15: 44.4 a.u.
2'F-ANA at 1 2 3 4 5 6 7 8 9 14: 46.5 a.u.
2'F-ANA at 4 8 9 13: 208 a.u.
2'F-ANA at 4 9 10 13 14: 64.5 a.u.
2'F-ANA at 2 7 9 11: 442 a.u.
2'F-ANA at 1 2 4 5 7 9 11 12 13 14 15: 49.7 a.u.
2'F-ANA at 2 3 5 9 12 13 14: 64.4 a.u.
2'F-ANA at 4 5 9 11 13: 183 a.u.
2'F-ANA at 5 7 9 12 14 15: 46.4 a.u.

Series 3
Target: Histone acetyltransferase KAT6A, winged helix 1, GST fusion (KAT6A, Homo sapiens, UniProt Q92794, residues 1-85)
Method: protein binding microarray
Form: double-stranded DNA, one strand shown
Sample: in vitro
Tested at: not given
Notes: 8-mer, flanks averaged, mean of 2 arrays, mostly near background
Relative to: not given
Reading: higher = stronger binding
Endpoint: E-score
Residues (chain): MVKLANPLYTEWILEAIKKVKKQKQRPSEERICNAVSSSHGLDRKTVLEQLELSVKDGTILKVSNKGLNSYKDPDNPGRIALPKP
CAGTAGCC: 0.0645
CTCGGGAC: 0.18
CGCATCAG: 0.107
ATACAGCG: 0.135
CAGTGGTC: -0.127
ACGGTCAG: 0.135
AGATCGGC: 0.205
ACTCACCA: -0.325
CACTAACC: 0.0189
CAGTTTGC: 0.0567
ACCACTCA: -0.179
GTGCAGTA: -0.0548
ATCGAACC: 0.0405
AAGGGCAC: -0.158
AAGTGAAC: -0.214
AAACTTCC: -0.0587

Series 4
Target: RNA binding protein fox-1 homolog 2, RRM domain, GST-SBP tag (RBFOX2, Homo sapiens, UniProt O43251-10, residues 100-194)
Method: RNA Bind-n-Seq
Form: RNA
Sample: in vitro
Tested at: 365 nM
Notes: natural RNA segment, single round, ends assumed
Relative to: no-protein control
Reading: higher = stronger binding
Endpoint: RBNS enrichment (R)
Shared flanks, not repeated: GGGAGUUCUACAGUCCGACGAUC … UGGAAUUCUCGGGUGCCAA
Target sequence (chain): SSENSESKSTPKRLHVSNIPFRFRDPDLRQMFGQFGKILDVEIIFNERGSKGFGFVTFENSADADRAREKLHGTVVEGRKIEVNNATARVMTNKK
CUCAGUGAACAGAAUAGCAGUCCCUGGAUGGCAGUCUGCCUAAAGAUUCCUUUCCCUGCCUUCUCCCAUACAUUCCAAAAGGAAGUUCAACAGUAAGCAGCACCUCCAAG: 0.323
CUCUUCUAUGUGGCAGGGGCUGAUAGGGCAAAAUAAAAUGACAAUUUCUUUAUUGCUACAGAGUAUCCUCUAUAAGUUAUUAAACGAGUGUAAUGGUAUAAUGCCCUUCC: 0.289
GUCUUGAAUCAGACUCAGAAAUGGCUUCUUCCCAGCCCUGCCUACAAGUUUUUCUCUGGGGUCCUCUUUCAAGGAUGUCCACGGUACCUUCCUCCUGAAACUUGAGGAAG: 0.361
UAUCACACGUGGCCUUGUCUAGACCCAGUCCUGAGCAGGGGAGAGGCUCUUGAGACCUGAUGCCCUCCUACCCACAUGGUUCUCCCACUGCCCUGUCUGCUCUGCUGCUA: 0.48
GGGACAUUGAGUGACAAGCCUCAGAAUGUUACAGAGGUAAAGUGAGGCAUCUCAAAUCCACUGACAGAUAAGAAAACCGCGUUAGAGGGAAAGUCACCUCUGCUAUUGUA: 8.21
UGAUGACUUGCACUUUUAAAGUGGUUUUAUAACACUAACCCGUCCUUGCUAAAGAUUGAAGUAGGUUCUCUUAAAAGGUCUAUUGAUGGACAUGUCUGAGCAGAGAAACC: 0.523
GGAUGGGAAGGAGCAGCCAGGCGUGGGAAGCGGCGAGAUCCUCGGGCUGGGGGUGCCCACGUUUGCUACCUCCCACUGUGAAAUCGCUGGUGCUCACAAUUGUCUCUCAC: 1.1
CGUUUAGACGUUUAGAGUCCUCUUGGAAAAUAGGGCCGUGCGGGAACGGUUAUGAUUGCCAGCGUUUUGGAUGGCAUUAAACUGGAGUUCAGGGUUGAACAUGUCCUGCU: 0.243
ACAGGCAAAAAUAUAGAAUGUUACAUAGUGUUGUGUGAUUAAAUUAUAGUUCCUGCUGUUAACAUUACCUUUUGAAACCUUGGCUCCAGUUUUGGUGCUUCUUAUACAAA: 2.51
CAUGGAAACCCAAAGGCCGUGUGUGUUUAGAAGCCUAACUGUCACAUCAAGCAUCAUCGUCCCCAUGCAACAACAACCAUCACCUUAUACAUCACUUCCUGUUUUAUGCA: 0.895
CUUAUAAGUGUCAUACGUCACCCUACAGCAAACACGUGACAACCAUCCUGGGCUCUCAUCUGAACCCCUCUUCUACCCACUUCUACUUGGAGGUGUCCUGUCUUUUUAAA: 0.444
AAGCAAAGACCAAAGAUGCAUCAGCUUAAAGAGAAGUCAGACGACAAUGACGAAUCAUUCCAAGGCCAAGCUGCAACUGAGCCACUCACCCACCAACAGGAAGGCCUGGU: 0.556

Series 5
Target: Centromere-binding protein 1, full length, His-tagged (CBF1, Saccharomyces cerevisiae, UniProt P17106, residues 1-351)
Chain of UniProt P17106 (whole entry, looked up): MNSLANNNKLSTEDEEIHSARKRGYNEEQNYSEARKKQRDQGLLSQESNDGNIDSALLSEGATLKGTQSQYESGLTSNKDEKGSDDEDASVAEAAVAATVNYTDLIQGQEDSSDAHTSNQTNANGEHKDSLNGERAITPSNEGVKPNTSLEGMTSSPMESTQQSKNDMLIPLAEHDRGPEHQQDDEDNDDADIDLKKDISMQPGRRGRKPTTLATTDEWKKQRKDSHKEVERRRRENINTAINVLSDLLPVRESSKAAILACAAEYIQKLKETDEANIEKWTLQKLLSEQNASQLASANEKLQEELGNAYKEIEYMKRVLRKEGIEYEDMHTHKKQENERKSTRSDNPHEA
Method: competition protein-binding microarray
Form: double-stranded DNA, one strand shown
Sample: in vitro
Tested at: 2 µM
Notes: whole 60-bp probe, lowest competitor level
Added: Pho4 competitor, 0.05 µM
Reading: higher = stronger binding
Endpoint: fluorescence intensity
Shared flanks, not repeated: … GTCTTGATTCGCTTGACGCTGCTG
CGCGATTATGGGCCGCTCGTGACGGTAAAGGAAGCA: 193 a.u.
AGTAGCGATGACTGTCATGAAGATGAAAGGGTGCGG: 69.9 a.u.
TAGGATCGACTTACCCACGTCCAACTGCTGTTGACG: 55.3 a.u.
TCTGTGATACAGCGTCACATGACAATTTAAAAGTGT: 2460 a.u.
TTATCTTCAACAAGAAACGTGACGGTACTCATAAAG: 561 a.u.
AAAGCGGTAATTTGAGGCGTGGGTGCAGATATCTAT: 73.1 a.u.
CTTCTGTAAATTTGCGGAGTGGGTGGACGCGCCCCG: 81.7 a.u.
TAATTCCAGGTTGAGCGCGTGGCCGCCTATAATCCA: 70.7 a.u.
TGCGCAACAACTTGTCACAACACTTTATGTCTAGAA: 103 a.u.
AAACATGGGAGTGGCATCTCATAATGTTGCTGCTCC: 73.7 a.u.
CGTCCTAGTGATTGTAGAGTGGGTGCCATGAGGAAG: 82.4 a.u.
CGTCCTAGTGATTGCTTAGTGGGTGCCATGAGGAAG: 87.7 a.u.
CGGGGTTAAGTTTGTCACTCTACTTGCTTGCAGCAG: 56.2 a.u.
CTTTCCCGATCTTTTCACGTGGTGTTAGCACATTTG: 1240 a.u.
GCTGCAAGATTAGTCTATGTGACGGTGCCTTTTTTG: 79.5 a.u.
TTCAGCTTGGCTATTTTGTGAACACTGTATAGCCAG: 74.2 a.u.
GTCTTGTCTCATTTTCACGTGACGTTCCCCACTTCA: 3960 a.u.
TTTACCCCTGGTACCCACGTCCAGTTCGCTTATCTC: 62.1 a.u.
GTCTTGTCTCATTGGGCTGTGGGTGTCCCCACTTCA: 84.2 a.u.
CAAAAGTATCTTGACAACGTGGTCGAAATTGAGTAA: 237 a.u.
AGATTGCTTTTCTCACGCCTGTTTTACGTCTCCAGG: 76.2 a.u.
AAAGCGGTAATTTGTGGGGTGGGTGCAGATATCTAT: 84.6 a.u.
TGTAAATAACCGTGGAAGAATTTGTATTATCATCGT: 97.6 a.u.
TGCTGTCATTTGAGTCAGGTGTAGAGCAGGTTAGAA: 188 a.u.
TTGCTAACGGATTAAAACGTGTGGAATTATTGTTGC: 155 a.u.
